Results collected from several papers.
Each numbered part is a random draw from the data of one study; scales do not carry over between parts. “And” joins repeats or separate records; there may be more than shown.
Sequence of UniProt P36894 (whole entry, looked up): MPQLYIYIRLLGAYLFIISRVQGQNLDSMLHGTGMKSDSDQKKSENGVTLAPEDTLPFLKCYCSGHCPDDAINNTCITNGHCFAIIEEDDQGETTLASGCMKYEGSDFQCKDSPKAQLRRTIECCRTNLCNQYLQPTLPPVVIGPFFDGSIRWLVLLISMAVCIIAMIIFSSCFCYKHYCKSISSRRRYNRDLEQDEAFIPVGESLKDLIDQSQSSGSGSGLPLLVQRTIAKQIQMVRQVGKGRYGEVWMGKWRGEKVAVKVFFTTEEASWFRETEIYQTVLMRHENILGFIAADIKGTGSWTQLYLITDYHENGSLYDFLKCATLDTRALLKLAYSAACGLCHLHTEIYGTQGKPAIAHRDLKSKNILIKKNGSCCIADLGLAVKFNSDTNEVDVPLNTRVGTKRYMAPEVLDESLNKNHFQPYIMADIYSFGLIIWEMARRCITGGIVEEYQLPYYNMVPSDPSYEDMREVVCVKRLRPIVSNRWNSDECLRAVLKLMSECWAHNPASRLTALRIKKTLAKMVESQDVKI
Sequence of UniProt Q13705 (whole entry, looked up): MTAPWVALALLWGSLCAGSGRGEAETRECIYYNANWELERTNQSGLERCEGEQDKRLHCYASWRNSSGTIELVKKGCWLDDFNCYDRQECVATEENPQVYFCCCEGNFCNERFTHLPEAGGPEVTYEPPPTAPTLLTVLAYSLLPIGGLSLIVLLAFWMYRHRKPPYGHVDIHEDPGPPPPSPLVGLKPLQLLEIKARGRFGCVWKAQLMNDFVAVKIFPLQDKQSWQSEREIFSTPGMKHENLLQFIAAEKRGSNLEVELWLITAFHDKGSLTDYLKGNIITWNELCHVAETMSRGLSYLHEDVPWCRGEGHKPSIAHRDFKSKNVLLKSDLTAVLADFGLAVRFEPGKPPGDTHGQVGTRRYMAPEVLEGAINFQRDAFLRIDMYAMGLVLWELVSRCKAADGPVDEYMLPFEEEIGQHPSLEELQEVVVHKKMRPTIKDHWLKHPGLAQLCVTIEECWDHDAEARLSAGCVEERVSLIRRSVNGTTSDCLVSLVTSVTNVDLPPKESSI
Sequence of UniProt Q9UPE1 (whole entry, looked up): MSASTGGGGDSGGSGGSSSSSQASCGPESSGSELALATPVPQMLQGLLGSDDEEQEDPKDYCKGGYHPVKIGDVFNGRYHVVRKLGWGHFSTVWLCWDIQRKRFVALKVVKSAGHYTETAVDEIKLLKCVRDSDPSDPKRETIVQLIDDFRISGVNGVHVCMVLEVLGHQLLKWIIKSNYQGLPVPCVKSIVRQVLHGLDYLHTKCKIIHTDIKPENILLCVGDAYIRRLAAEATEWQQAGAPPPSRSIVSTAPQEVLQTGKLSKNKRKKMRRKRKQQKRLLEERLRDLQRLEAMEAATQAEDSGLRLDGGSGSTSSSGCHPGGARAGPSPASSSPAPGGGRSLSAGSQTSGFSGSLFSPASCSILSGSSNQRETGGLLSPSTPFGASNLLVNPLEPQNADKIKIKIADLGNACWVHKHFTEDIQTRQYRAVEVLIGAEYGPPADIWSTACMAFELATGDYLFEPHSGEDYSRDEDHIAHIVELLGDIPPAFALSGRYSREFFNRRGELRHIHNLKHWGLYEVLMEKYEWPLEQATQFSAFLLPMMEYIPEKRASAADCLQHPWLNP
Sequence of UniProt Q8IVH8 (whole entry, looked up): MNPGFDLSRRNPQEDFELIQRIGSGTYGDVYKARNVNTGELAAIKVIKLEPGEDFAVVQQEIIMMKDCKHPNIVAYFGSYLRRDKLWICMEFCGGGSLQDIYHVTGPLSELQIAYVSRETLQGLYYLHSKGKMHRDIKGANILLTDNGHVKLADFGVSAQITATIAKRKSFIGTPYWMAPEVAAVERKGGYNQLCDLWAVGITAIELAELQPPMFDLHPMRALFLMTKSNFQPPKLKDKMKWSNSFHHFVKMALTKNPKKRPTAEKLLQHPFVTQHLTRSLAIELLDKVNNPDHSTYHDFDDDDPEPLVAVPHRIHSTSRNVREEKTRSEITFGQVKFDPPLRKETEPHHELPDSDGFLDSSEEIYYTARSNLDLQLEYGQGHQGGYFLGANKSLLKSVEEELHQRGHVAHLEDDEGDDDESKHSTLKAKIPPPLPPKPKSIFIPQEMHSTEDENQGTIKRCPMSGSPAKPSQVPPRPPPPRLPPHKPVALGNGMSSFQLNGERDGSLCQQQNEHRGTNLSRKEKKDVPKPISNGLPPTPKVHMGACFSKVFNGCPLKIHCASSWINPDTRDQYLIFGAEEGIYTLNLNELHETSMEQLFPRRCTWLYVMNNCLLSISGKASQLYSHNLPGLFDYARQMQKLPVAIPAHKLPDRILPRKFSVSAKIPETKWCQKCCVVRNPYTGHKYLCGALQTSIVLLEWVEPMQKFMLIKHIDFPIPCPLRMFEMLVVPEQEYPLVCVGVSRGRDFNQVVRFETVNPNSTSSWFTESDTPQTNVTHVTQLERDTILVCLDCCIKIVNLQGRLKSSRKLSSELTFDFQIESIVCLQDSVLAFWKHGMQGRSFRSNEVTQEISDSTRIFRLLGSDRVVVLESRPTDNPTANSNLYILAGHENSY
Sequence of UniProt O94768 (whole entry, looked up): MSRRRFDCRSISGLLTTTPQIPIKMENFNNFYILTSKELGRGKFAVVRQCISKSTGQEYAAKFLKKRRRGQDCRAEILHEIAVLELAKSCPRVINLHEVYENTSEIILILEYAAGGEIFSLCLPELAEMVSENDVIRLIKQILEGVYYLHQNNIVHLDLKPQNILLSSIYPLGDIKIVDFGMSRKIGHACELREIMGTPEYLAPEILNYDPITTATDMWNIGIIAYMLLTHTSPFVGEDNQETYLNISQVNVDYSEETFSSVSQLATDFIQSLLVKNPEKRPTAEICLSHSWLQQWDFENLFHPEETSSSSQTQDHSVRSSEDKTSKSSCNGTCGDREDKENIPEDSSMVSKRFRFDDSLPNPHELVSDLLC
Sequence of UniProt Q13882 (whole entry, looked up): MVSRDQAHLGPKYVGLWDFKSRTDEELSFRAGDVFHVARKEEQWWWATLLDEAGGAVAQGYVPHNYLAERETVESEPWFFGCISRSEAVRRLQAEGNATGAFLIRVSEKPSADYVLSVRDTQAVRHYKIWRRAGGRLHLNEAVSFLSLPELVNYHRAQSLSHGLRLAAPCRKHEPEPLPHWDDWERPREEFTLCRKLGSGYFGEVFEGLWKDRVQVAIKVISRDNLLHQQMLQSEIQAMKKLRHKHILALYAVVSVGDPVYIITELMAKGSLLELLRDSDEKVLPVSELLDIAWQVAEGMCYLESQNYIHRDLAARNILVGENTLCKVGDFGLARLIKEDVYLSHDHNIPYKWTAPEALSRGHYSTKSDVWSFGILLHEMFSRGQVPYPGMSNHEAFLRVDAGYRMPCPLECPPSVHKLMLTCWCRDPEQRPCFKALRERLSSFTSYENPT

Sample 1
Target: Ephrin type-B receptor 4 (EPHB4, Homo sapiens, UniProt P54760)
Effect on: enzyme activity
Action: inhibitor
Concentration: 0.5 µM
Baseline: control
Measurement: remaining activity
Target sequence (P54760 1-987): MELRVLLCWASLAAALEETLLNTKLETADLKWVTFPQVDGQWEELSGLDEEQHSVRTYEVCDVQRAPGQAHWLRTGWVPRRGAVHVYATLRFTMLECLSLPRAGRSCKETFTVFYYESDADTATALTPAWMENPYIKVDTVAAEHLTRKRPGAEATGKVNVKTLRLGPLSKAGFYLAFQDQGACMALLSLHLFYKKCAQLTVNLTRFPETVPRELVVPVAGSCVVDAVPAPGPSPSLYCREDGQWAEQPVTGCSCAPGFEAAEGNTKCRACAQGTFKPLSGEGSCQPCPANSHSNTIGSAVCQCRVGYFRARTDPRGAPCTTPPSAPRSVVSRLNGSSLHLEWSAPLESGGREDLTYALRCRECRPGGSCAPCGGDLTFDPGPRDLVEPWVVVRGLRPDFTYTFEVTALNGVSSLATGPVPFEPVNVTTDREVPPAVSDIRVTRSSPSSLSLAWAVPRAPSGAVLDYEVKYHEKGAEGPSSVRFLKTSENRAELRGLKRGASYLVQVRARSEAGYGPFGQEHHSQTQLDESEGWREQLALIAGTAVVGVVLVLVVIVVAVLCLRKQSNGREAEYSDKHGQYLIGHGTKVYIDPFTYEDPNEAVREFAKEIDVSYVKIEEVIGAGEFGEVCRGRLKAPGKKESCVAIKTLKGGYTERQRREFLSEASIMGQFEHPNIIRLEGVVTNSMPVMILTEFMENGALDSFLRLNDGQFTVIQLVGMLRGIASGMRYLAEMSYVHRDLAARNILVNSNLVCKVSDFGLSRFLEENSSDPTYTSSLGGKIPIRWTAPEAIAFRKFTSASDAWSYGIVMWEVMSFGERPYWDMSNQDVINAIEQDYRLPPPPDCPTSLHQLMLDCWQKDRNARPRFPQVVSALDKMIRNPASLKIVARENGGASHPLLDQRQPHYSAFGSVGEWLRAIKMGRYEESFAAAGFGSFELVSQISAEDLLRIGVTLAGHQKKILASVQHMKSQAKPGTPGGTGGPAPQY
O=C(Nc1cccc(Nc2cc(Nc3cccc(C(F)(F)F)c3)ncn2)c1)C1CC1: 97.8%
Nc1ccc2ncnc(NCCc3ccc(Oc4ccccc4)cc3)c2c1: 104%
O=C1NC(=O)C(c2cn(CCCO)c3ncccc23)=C1c1cnccn1: 95.2%
O=c1c2ccccc2[nH]c(=S)n1CCN1CCC(=C(c2ccc(F)cc2)c2ccc(F)cc2)CC1: 97.1%
NCCNc1ncc(C(N)=O)c(Nc2cccc(C(F)(F)F)c2)n1: 85.5%
CCOC(=O)c1c(C)[nH]c(/C=C2\C(=O)Nc3ccccc32)c1C: 89.5%
N#CC(C#N)=C(N)/C(C#N)=C/c1ccc(O)cc1: 88.1%
CC(C)[C@H](CO)Nc1nc(Nc2cc(N)cc(Cl)c2)c2ncn(C(C)C)c2n1: 58.4%
Nc1[nH]nc2nc3ccccc3nc12: 84.9%
O=C1NC(=O)C(c2cn(CCCn3ccnc3)c3ccccc23)=C1Nc1ccccc1: 87.9%
Cn1c2ccccc2c2c3c(c4c5ccccc5n(CCC#N)c4c21)CNC3=O: 96.3%
O=S(=O)(c1cccc2cnccc12)N1CCCNCC1: 107%
COc1cc2ncnc(Nc3ccc(Oc4ccccc4)cc3)c2cc1OC: 85.5%
O=C(O)c1ccc2c3c1cccc3c(=O)n1c3ccccc3nc21: 90.6%

Sample 2
SMILES: C=CCc1ccc(O)c(-c2ccc(O)c(CC=C)c2)c1
Target: Anoctamin-1 (ANO1, Homo sapiens, UniProt Q5XXA6, del476-501)
Sequence of UniProt Q5XXA6 (whole entry, unmodified, looked up): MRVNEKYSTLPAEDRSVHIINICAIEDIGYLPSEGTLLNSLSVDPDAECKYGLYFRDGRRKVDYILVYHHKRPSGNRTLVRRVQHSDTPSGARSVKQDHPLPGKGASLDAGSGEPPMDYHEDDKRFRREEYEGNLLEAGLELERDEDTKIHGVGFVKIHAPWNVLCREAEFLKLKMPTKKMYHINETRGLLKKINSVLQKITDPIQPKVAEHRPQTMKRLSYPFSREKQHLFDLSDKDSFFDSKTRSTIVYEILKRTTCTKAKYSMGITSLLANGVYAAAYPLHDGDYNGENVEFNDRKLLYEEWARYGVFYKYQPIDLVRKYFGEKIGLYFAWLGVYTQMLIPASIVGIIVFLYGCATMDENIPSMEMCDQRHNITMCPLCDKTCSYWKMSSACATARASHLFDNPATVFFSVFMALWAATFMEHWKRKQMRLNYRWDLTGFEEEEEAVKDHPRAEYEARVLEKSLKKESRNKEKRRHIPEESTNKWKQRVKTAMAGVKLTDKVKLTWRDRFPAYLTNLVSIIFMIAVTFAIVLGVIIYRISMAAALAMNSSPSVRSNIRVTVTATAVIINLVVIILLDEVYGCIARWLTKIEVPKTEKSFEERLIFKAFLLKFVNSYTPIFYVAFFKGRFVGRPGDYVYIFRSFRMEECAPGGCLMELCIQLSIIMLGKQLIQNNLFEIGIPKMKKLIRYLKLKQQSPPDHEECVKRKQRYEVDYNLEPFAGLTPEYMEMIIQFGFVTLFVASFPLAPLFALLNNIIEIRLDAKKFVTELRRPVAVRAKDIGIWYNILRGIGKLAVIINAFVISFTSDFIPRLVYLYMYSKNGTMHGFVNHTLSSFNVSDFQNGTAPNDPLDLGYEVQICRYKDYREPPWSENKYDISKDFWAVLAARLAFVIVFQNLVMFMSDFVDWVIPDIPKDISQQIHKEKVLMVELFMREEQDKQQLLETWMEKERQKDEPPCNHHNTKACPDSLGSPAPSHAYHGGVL
Effect on: chloride current
Technique: whole-cell patch clamp
Measurement: normalised current
3 µM, 40 mV, 300 nM free Ca2+: 0.139 and 0.133
3 µM, 60 mV, 300 nM free Ca2+: 0.262 and 0.275
1 µM, 20 mV, 300 nM free Ca2+: 0.102 and 0.0971
1 µM, 80 mV, 300 nM free Ca2+: 0.649 and 0.681
100 µM, 20 mV, 300 nM free Ca2+: 0.0055 and 0.0058
3 µM, 100 mV, 300 nM free Ca2+, added: honokiol and magnolol 10 µM: 0.452
30 µM, 80 mV, 300 nM free Ca2+: 0.0757 and 0.0721
1 µM, 60 mV, 300 nM free Ca2+: 0.419 and 0.44

Sample 3
Host: mouse
Sample: microsomes or S9
Concentration: 2 µM
Time: 0.5 h
Measurement: remaining compound
CCN(c1ccc2c(c1)OCO2)c1cc(Cl)nc(Cl)n1: 67.5%
O=S(=O)(c1c[nH]c2ncc(Cl)cc12)N1CCn2ncnc2C1: 28.7%
CCCN1C(=O)C2(C(C(=O)c3ccc4c(c3)CC(C)O4)=C(O)C(=O)N2CC2CCCO2)c2ccccc21 (stereo not shown): 47.8%
Cc1nc(NC(=O)CCCCF)c(N)cc1Br: 45.3%
CCCc1noc2nc(CC)cc(C(=O)N(C)Cc3ncon3)c12: 37.5%
Cc1n[nH]c(=O)c(C(=O)NC2CCc3nc(C(C)(C)C)cn3C2)c1C (stereo not shown): 94.8%
CN(Cc1ccccc1-n1cccn1)C(=O)CN1CC2(CCCC2)CC1=O: 1.13%
COc1ccccc1Cn1ccc2nc3ccn(-c4ncn[nH]4)c(=O)c3cc2c1=O: 60.2%
Cc1c(C(=O)O)[nH]c(S(=O)(=O)NCCO)c1C: 38%

Sample 4
Structure (SMILES): CN(C(=O)c1ccccc1)c1cc(N(C)c2ccc3c(c2)CCc2ccc(C(=O)NCCN4CCOCC4)cc2C3=O)ccc1F
Technique: competition with immobilised ligand
Concentration: 1 µM
Measurement: remaining binding
Focal adhesion kinase 1 (PTK2, Homo sapiens, UniProt Q05397); cell-free assay: 91%
Mitogen-activated protein kinase kinase kinase kinase 3 (MAP4K3, Homo sapiens, UniProt Q8IVH8); cell-free assay: 83%
Activin receptor type-2B (ACVR2B, Homo sapiens, UniProt Q13705); cell-free assay: 100%
Ephrin type-A receptor 2 (EPHA2, Homo sapiens, UniProt P29317); cell-free assay: 61%
Serine/threonine-protein kinase 17B (STK17B, Homo sapiens, UniProt O94768); cell-free assay: 100%
Proto-oncogene tyrosine-protein kinase receptor Ret (RET, Homo sapiens, UniProt P07949, V804M); cell-free assay: 89%
Bone morphogenetic protein receptor type-1A (BMPR1A, Homo sapiens, UniProt P36894); binding: 80%
Protein-tyrosine kinase 6 (PTK6, Homo sapiens, UniProt Q13882); cell-free assay: 94%
SRSF protein kinase 3 (SRPK3, Homo sapiens, UniProt Q9UPE1); cell-free assay: 100%

For quick reference, copied from above (sample 1):
N#CC(C#N)=C(N)/C(C#N)=C/c1ccc(O)cc1: 88.1%
CC(C)[C@H](CO)Nc1nc(Nc2cc(N)cc(Cl)c2)c2ncn(C(C)C)c2n1: 58.4%
Nc1[nH]nc2nc3ccccc3nc12: 84.9%
